Results gathered from unrelated publications.
Parts stem from different laboratories: compare values within a part only. Positions count from the first letter of the parent shown.

Study 1
Target: RNA binding protein fox-1 homolog 2, RRM domain, GST-SBP tag (RBFOX2, Homo sapiens, UniProt O43251-10, residues 100-194)
Technique: RNA Bind-n-Seq
Form: RNA
Medium: in vitro
Tested at: 365 nM
Notes: natural RNA segment, single round, ends assumed
Reference: no-protein control
Direction: higher = stronger binding
Target sequence (chain): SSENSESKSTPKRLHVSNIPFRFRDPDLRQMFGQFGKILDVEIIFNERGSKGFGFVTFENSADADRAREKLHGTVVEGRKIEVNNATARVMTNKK
Strand | RBNS enrichment (R)
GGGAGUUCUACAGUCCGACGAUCUUUAGAGCUUAUCUCAGAUUUAAAUAGCCAAAGGAAGACCUCAUUGCCUUCCAGGUGAAGGUGCAAAGUCAUACAUAUUAAUGACCUGACAGUUAACAUUCUGUUGUUUAUGGAAUUCUCGGGUGCCAA | 0.36
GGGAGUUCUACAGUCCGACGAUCUGGGUCUUUACACCUCUGUGAAGUAGAGAAUUUUGGCAAUGAACUGUUUAACUUGGCCAAUCUAGGCCAUCAACCUAGAUAACUUAGUCCUUUUCAUGUAAAUUUUUGUGUGGAAUUCUCGGGUGCCAA | 0.263
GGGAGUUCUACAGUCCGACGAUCUCCAAAUUUAUAUUUCGGGGAAAUACCAUGAGAUAAUUAUAGCAUACUGGGCAUGUGUCCACACACGGAUUGGUUUCACUGCUUUAUAAAUAAAAGGAACAACUCUGGGUUGGAAUUCUCGGGUGCCAA | 0.83
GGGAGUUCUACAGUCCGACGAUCGGAAGGUGUCGUUUUUACACUGCUAAUGACGAGAGUGGCUCUUUUUAGCUAGGCGAGUACAGACGGGGCCUGGGAGGGGGCAGAGAUGUUCCCCAGGCCCUGCCUGUGGUUGGAAUUCUCGGGUGCCAA | 0.312
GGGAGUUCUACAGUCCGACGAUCGACUCUACCACUUCCGUGAGCUACUAGUUAGGCAUGGGCAGGAUUAAGUUUUAUGUGUAUUAUCUUCCCACUACCAAGAAUGGUUAUGUUUCACAGAAUACCAGUUCAGUUGGAAUUCUCGGGUGCCAA | 1.17
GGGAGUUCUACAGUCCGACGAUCAGAGUCUGGGUUGGUGUGGAUAGCAAAGGAGGAAGUCUGAGCCCCUCAUUGGUCUUCCUCCCACCUGUCCCUUUUCCGGGAAGUUGUGGAAUUGUUGGAAGAAGAGUUUGUGGAAUUCUCGGGUGCCAA | 0.764
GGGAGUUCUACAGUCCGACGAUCACUACGCACUUUAGAUAAGCCUCUUUUUAGUUCUUUCUGUUUCUCAAUAAUGGGCCAAAAAUACACCAUAGAGUUAAAGGUGCUGUCUACCAAGUAGCACACCAGUCAUGUGGAAUUCUCGGGUGCCAA | 0.318
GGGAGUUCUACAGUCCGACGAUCUGAAGCAUCUUUAAAUACGAUAGAAAAUAAGCUACUCAAGAAGCUGGUCUGUGUCCUUUUGCCUUAGUCCAUGCAUACUCAUUAAGGAAAAAAAGUACCAUUGUGCUAAAUGGAAUUCUCGGGUGCCAA | 1.15
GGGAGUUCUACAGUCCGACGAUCAUCUAUUGAUGGACUCUACAUCCUAUAUUGUGACAUGUAAGUCCUUUAAAAGGUGAAAAGUAUGAUUUCUUACCACUUAAGUAUGAUUGAUAUGAUCCAACAAAUUUGAUUGGAAUUCUCGGGUGCCAA | 0.468
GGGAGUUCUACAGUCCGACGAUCUUUGUGUUGGAUUUGUUUUCCAAAUAUGUGUGUAUGUAGACUUCAUGGUAGUGUUUCUUAUUUAUUUGGUUGCUGCUAAGCCUUGACAGUGGUUCACCUUCCUGGGCUGUUGGAAUUCUCGGGUGCCAA | 1.4
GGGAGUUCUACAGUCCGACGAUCAGGAGCUGCUCUGCGCCAGGUGCCAAGGCUUCAGGCAGGCAGGCCCAGGAUGGGCGUUUGCUGCGCACAGACACUCAGCAGGGGCCUCGCAGAGAUGCGUGCAUCCAGCAUGGAAUUCUCGGGUGCCAA | 0.554
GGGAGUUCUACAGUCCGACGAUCGCGCAGGCUGCAGUGAGCUCUGAUGGUACCACUGCACUCCAGCCUGGGUGACAGAGCGAGACCCUGUCUUAAAAAAAAAAACAAAACAAAACCAGCAUCUGUUACUGGAAUGGAAUUCUCGGGUGCCAA | 0.729

Study 2
Target: Interferon regulatory factor 7, full length, phosphomimetic (IRF7, Homo sapiens, UniProt Q92985, residues 1-503, S101K/S471D/S472D/S475D/S476D/S477D/S483D/S484D/S487D)
Technique: protein-binding microarray
Form: double-stranded DNA, one strand shown
Medium: in vitro
Tested at: 250 nM
Notes: 60-bp whole probe
Together with: salmon DNA 0.4 mg/ml
Reference: random background probes
Direction: higher = stronger binding
All sequences stand within: GCCTAGCAC … GTCTTGATTCGCTTGACGCTGCTG
Construct (chain): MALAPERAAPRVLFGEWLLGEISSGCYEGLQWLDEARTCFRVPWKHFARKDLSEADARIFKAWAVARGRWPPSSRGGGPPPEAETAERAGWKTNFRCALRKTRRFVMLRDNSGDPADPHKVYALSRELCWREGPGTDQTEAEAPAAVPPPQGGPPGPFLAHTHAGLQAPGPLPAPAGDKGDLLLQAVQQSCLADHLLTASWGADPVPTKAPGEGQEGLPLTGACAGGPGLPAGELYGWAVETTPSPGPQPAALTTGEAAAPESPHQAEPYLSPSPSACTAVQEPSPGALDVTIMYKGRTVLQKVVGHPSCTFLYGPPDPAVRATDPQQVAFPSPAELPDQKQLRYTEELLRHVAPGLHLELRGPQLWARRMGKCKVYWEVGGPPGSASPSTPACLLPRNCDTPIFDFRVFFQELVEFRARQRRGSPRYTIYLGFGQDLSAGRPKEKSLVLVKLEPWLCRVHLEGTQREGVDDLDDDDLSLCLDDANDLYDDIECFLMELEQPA
Strand | log fluorescence
GACCTTCACCTCTCTGTCCCCGTGCTA | -0.0786 z-score
TACGGTATCGGGTATCGGGACGTGCTA | 0.575 z-score
TTTCTTTTGCTTGTTCTTAGCGTGCTA | 0.94 z-score
TTAGAACTGAGTATCGATTTGTGCTAG | 2.59 z-score
TTAGGTTTCCTTATCTTTTAGTGCTAG | 2.18 z-score
TTCGATTCCAGTTTCGATTAGTGCTAG | 9.01 z-score
TTAGGTATCGGTCCCGGTTAGTGCTAG | 0.927 z-score
GACGGACTGCTTATCATGACGTGCTAG | -0.49 z-score
TTACGACTGCTTCTCCTTTAGTGCTAG | -0.111 z-score
GACTATATCGGGACTGGAGACGTGCTA | 0.192 z-score
TTAGATTTCAGTCTGGATTAGTGCTAG | -0.0109 z-score
TCATTTCCCAAGTTTATAACTGTGCTA | 4.25 z-score
TTAGGTTTCGCGTTTCGGTTAGTGCTA | 9.08 z-score
GACAATATCAGTTTCGAGACGTGCTAG | 4.49 z-score
GACGGACTGGGGACGGGGGACGTGCTA | 1.73 z-score
TTAGGACTGGGACTGGGTTCGTGCTAG | -0.444 z-score
CACGGACTGGACTATCGGGACGTGCTA | -0.705 z-score
GACGATATCGGTCTCGAGACGTGCTAG | 0.521 z-score

Study 3
Target: Histone acetyltransferase KAT6A, both winged helices, GST fusion (KAT6A, Homo sapiens, UniProt Q92794, residues 1-181)
Technique: protein binding microarray
Form: double-stranded DNA, one strand shown
Medium: in vitro
Tested at: not given
Notes: 8-mer, flanks averaged, mean of 2 arrays, mostly near background
Reference: not given
Direction: higher = stronger binding
Construct (chain): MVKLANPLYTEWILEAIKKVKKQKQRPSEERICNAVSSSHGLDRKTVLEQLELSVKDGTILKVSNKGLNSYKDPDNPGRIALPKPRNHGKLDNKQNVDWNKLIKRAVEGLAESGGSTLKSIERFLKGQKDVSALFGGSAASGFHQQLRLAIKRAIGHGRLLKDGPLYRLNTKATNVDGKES
Strand | E-score
CACCAACC | -0.0855
AACCAATT | -0.105
CGGGTGCC | 0.287
AGAATCGA | -0.168
GGGCTGGA | -0.145
ACCGTCTG | 0.151
AAGCCGGG | 0.119
GTATGACA | 0.0176
CCTGAGGC | -0.0366
AATGGTCC | 0.00843
CCTTATTC | -0.199
AGCATATA | -0.133
CTCCTTTA | -0.0581
GAGTTTAA | -0.0668
GAGTGTAA | -0.085
TCTCCACA | -0.195
ACTCGTGC | 0.0436
GAAGATGA | -0.116
ATAAGGAA | -0.183
ACGATTGA | -0.057
TCACGCCA | -0.00575
CTATTCTA | -0.203
ATAGAGCA | -0.176
GGGGGAGA | -0.288
CTGTCCTA | -0.225

Study 4
Target: Sal-like protein 4, full length isoform A (SALL4, Homo sapiens, UniProt Q9UJQ4, residues 1-1053)
Sequence of UniProt Q9UJQ4 (whole entry, looked up): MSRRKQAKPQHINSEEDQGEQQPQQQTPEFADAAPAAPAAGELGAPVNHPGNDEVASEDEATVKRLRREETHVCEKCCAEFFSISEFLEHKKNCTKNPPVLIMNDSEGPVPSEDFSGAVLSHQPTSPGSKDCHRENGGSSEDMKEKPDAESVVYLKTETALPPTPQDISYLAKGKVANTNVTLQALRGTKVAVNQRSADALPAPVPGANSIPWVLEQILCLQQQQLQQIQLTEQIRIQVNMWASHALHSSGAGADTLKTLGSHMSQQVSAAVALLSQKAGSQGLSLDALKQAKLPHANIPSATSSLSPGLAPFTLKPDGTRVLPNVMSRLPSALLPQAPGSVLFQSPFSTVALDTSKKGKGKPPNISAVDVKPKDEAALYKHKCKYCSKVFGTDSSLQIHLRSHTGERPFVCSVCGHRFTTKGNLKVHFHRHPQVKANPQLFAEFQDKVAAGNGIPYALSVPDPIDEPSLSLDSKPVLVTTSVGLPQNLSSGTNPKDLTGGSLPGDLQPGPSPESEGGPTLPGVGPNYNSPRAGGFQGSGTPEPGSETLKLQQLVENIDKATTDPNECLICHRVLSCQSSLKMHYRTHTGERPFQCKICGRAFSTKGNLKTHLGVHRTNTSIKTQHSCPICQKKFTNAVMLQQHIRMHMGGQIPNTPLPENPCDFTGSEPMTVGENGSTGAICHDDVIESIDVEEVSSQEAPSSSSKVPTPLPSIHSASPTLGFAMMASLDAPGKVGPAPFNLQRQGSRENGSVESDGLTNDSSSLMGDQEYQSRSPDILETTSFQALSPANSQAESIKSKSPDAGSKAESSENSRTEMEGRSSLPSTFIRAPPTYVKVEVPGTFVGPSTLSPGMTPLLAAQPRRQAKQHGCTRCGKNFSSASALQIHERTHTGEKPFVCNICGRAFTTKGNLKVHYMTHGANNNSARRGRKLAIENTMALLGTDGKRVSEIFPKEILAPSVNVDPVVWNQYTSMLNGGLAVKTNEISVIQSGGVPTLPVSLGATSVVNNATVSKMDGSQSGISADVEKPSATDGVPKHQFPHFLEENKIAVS
Technique: universal PBM
Form: double-stranded DNA, one strand shown
Medium: in vitro
Tested at: 600 nM
Notes: 8-mer, flanks averaged, mean of replicates
Direction: higher = stronger binding
Strand | E-score
CGAATGGC | -0.0183
GCTGTACA | -0.0991
GGCCAAAC | -0.277
CGCTAGCC | -0.317
AACGGGGA | -0.152
CTCTACGA | 0.0334
AATCGCTG | -0.105
AAAAAGTC | 0.0884
GAAAACAA | 0.224
AGTGACAC | 0.0155
CACAGGGG | -0.288
GACGCCGA | -0.218
ACCCTTGC | -0.212
AGACAAAA | 0.0659
GCGTCAAA | 0.0208
AGGTAAAA | 0.184

Study 5
Target: CCNE1, cyclin fold, Cln2 fusion (human)
Technique: yeast growth competition, sequencing
Medium: yeast
Notes: weak parent motif
Reference: not given
Direction: higher = stronger binding
Parent: SAMHD1 docking peptide (human); ASKSRVQLFKDDP
Variant | normalised enrichment score
ASKSRVQLFKDHP [D12H] | 0.328
ASKSRVILFKDDP [Q7I] | -0.23
ASKSRVTLFKDDP [Q7T] | -0.102
AWKSRVQLFKDDP [S2W] | 0.342
ASKSRVQLLKDDP [F9L] | 0.268
AEKSRVQLFKDDP [S2E] | 0.319
ASRSRVQLFKDDP [K3R] | 0.0823
ASKSRMQLFKDDP [V6M] | 0.241
ASKSRVQLFPDDP [K10P] | -0.0749
ASKSRVELFKDDP [Q7E] | -0.274
ASKSHVQLFKDDP [R5H] | -0.152
ASKSRVKLFKDDP [Q7K] | 0.32
ASKSRVQLNKDDP [F9N] | 0.0923
ARKSRVQLFKDDP [S2R] | -0.165
ASKSRVQLFKDWP [D12W] | 0.429
ASKSRVQLFKDFP [D12F] | -0.167
ASKSRVQLFKDQP [D12Q] | -0.0346
ASKPRVQLFKDDP [S4P] | -0.0983
ASPSRVQLFKDDP [K3P] | 0.315
ASKSRVQLRKDDP [F9R] | 0.0715
ASKSRVQLFSDDP [K10S] | 0.283
ASKSRVQHFKDDP [L8H] | -0.362

Study 6
Target: ABI1, truncated, D143A, DHFR fusion (Arabidopsis thaliana)
Technique: DHFR PCA, deep sequencing
Medium: yeast
Notes: methotrexate growth selection, single substitutions
Together with: (+)-ABA 0 µM
Reference: wild-type fitted maximum
Direction: higher = stronger binding
Parent: PYL1, truncated, DHFR fusion (Arabidopsis thaliana); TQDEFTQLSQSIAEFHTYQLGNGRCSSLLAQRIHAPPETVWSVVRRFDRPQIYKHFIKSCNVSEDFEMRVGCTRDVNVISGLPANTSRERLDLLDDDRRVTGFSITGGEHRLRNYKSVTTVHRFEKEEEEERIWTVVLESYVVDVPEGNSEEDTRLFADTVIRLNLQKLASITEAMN; partner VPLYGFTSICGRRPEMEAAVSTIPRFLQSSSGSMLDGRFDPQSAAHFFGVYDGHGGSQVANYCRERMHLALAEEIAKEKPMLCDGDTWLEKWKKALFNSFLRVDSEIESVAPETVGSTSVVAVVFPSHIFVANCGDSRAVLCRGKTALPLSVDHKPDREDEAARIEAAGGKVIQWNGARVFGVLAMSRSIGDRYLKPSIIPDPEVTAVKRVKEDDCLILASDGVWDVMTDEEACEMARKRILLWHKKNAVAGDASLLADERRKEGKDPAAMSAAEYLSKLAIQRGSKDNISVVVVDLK
Variant | relative binding score [%]
S63N | 23.1
V78F | 94.3
V40T | -0.85
L8Q | 6.11
N22I | 19.7
D65I | -3.36
C25S | 2.3
C25A | 21.6
T6F | 38.3
G108T | -4.55
T119R | -3.77
Y53S | 0.148
G71E | -1.15
A35P | 8.47
F5I | 24.8
Q2M | 55.2
G107H | 16.7
D96P | -8.21
N85C | 50
P37Y | 4.61

Some of these lines once more (study 3):
Strand | E-score
ACGATTGA | -0.057
ATAAGGAA | -0.183
ACCGTCTG | 0.151
AAGCCGGG | 0.119
ATAGAGCA | -0.176
GAGTGTAA | -0.085
GAAGATGA | -0.116
GGGCTGGA | -0.145
AATGGTCC | 0.00843
GAGTTTAA | -0.0668
AACCAATT | -0.105
